# Measured values gathered from unrelated publications.
# A part holds a random share of what one study measured.
# Sequence of UniProt Q13546 (whole entry, looked up): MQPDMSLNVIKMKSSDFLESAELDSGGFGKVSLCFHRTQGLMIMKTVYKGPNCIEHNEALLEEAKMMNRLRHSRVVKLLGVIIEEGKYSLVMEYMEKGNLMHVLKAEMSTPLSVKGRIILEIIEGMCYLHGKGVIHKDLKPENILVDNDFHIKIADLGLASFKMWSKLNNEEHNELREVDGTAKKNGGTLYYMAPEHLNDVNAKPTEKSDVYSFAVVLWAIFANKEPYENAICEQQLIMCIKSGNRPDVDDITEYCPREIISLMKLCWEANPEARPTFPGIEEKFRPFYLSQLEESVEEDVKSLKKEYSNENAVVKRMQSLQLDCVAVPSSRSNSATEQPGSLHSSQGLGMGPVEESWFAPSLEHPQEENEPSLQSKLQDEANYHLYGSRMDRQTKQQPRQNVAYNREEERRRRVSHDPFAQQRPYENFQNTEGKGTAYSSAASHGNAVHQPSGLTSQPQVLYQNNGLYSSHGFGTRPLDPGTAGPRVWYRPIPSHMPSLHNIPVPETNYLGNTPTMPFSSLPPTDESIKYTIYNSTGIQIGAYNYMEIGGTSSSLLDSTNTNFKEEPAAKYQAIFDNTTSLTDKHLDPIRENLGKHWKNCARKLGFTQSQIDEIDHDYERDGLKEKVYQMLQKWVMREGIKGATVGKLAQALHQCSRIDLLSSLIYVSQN
# Sequence of UniProt P48729 (whole entry, looked up): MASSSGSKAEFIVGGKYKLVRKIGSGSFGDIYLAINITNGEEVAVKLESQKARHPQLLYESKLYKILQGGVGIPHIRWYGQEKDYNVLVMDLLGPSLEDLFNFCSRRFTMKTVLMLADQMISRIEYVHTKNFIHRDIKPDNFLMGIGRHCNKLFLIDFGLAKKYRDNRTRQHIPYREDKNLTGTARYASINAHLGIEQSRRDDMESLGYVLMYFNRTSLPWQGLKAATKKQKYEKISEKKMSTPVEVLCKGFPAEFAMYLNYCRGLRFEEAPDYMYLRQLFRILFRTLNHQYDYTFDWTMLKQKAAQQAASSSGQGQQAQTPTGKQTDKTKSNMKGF
# Sequence of UniProt Q9UQM7 (whole entry, looked up): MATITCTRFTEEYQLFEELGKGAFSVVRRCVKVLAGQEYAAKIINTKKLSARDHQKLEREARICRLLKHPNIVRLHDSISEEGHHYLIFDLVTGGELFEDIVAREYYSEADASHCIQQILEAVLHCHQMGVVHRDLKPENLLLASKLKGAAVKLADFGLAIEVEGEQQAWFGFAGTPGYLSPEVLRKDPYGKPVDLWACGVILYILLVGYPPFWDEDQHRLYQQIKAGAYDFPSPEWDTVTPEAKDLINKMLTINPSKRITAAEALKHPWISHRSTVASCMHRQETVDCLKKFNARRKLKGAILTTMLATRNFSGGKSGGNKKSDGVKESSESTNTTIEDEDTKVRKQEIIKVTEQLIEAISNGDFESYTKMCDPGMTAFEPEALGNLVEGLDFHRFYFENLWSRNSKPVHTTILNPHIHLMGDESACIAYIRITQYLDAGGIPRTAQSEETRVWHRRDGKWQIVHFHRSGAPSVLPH
# Sequence of UniProt Q9NRM7 (whole entry, looked up): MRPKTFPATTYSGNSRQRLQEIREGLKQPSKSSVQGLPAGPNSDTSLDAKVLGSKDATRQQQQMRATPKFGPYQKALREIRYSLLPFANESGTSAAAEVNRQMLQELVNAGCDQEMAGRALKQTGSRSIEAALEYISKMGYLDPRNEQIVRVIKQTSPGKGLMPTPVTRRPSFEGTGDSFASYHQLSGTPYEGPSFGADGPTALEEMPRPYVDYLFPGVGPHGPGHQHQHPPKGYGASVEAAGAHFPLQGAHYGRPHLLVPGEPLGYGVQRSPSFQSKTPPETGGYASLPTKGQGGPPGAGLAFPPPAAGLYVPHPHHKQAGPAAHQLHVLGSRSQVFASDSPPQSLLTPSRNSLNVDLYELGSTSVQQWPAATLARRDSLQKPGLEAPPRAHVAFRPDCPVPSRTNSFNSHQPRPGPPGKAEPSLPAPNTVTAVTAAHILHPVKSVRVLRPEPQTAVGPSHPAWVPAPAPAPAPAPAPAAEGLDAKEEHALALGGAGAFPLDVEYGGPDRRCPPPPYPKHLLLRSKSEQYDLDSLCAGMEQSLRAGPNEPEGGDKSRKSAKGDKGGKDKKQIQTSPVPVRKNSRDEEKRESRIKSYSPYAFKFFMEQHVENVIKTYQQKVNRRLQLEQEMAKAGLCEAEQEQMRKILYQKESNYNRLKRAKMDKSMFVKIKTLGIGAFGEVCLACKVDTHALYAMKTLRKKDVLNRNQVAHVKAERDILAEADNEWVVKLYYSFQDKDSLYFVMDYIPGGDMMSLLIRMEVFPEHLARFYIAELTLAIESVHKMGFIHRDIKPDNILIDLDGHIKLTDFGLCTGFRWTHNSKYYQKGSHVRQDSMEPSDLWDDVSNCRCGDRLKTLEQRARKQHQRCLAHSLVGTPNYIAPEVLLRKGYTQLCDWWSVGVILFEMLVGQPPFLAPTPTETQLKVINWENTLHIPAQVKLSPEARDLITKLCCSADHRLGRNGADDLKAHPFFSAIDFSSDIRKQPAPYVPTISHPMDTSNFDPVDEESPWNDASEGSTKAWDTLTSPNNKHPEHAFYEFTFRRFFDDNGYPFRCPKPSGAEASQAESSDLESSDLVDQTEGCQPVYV
# Sequence of UniProt Q13470 (whole entry, looked up): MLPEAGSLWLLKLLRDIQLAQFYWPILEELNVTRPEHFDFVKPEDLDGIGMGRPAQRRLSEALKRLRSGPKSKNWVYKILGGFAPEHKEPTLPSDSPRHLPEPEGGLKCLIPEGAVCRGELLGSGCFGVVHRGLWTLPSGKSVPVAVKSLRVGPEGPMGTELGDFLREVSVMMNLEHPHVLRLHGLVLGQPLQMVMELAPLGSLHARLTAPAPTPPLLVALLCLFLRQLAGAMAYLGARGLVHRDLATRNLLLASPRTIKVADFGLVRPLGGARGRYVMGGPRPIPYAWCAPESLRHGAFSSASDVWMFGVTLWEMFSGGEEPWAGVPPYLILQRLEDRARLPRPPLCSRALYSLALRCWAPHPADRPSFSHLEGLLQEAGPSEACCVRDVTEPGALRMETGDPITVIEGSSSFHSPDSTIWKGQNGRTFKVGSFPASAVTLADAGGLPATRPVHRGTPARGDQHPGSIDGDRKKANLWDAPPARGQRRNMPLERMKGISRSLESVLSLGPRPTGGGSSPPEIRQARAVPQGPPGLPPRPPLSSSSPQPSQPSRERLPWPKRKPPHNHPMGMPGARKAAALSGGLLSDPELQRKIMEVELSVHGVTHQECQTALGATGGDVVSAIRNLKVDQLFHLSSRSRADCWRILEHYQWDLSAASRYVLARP
# Sequence of UniProt Q8NG66 (whole entry, looked up): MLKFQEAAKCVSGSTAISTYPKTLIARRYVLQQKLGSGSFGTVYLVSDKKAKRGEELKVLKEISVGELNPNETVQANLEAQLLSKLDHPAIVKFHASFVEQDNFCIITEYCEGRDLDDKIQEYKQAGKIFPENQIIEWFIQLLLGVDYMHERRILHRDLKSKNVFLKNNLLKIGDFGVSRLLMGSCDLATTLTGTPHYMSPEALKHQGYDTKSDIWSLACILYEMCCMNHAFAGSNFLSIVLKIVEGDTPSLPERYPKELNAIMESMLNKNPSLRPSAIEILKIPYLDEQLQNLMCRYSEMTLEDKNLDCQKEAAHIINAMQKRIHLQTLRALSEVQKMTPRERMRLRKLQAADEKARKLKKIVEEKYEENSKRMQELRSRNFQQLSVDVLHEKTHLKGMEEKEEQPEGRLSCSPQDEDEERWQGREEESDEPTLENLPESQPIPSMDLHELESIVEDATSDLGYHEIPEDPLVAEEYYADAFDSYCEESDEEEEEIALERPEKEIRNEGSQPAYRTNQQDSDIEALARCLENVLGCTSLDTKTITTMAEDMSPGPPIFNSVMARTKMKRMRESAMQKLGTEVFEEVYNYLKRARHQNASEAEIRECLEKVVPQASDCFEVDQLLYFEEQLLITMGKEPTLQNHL
# Sequence of UniProt Q9NYY3 (whole entry, looked up): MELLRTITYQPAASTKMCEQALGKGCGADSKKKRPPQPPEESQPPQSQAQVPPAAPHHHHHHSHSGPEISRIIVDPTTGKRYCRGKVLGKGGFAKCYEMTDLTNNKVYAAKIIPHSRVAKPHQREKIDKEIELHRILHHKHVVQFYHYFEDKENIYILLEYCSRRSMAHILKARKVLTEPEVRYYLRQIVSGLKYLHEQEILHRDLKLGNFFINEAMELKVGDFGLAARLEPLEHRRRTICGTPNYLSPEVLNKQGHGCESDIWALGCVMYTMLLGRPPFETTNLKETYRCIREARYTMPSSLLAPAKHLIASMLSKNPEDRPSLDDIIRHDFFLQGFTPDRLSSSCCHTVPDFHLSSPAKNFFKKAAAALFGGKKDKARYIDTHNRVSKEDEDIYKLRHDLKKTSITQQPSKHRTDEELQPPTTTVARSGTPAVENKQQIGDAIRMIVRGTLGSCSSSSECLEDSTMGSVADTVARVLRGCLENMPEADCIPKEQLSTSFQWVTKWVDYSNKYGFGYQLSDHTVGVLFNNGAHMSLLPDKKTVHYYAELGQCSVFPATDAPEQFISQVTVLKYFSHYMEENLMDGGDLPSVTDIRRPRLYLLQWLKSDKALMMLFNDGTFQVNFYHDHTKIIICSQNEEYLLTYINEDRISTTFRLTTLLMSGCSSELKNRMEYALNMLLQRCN

# Block 1
# Target: PABPC1L2, full length, GST fusion (mouse, UniProt A0ABA7IW68)
# Technique: RNAcompete
# Form: RNA
# Sample: in vitro
# Tested at: 20 nM
# Notes: 7-mer, probes averaged, single round
# Reference: mean of 7-mers
# Reading: higher = stronger binding
# Construct (chain): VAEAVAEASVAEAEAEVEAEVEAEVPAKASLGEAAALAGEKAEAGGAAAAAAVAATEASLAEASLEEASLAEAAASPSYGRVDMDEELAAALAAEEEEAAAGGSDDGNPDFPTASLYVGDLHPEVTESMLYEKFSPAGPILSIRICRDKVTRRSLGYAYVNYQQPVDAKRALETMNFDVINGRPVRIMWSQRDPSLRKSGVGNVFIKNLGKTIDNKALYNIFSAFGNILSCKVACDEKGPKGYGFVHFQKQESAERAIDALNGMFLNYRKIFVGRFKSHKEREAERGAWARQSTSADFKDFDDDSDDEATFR
Sequence,7-mer Z-score
UAGUCGC,-0.331
UGCAUAA,0.146
AUUCAUG,0.0424
GCGAGUG,0.0714
GUUAGUC,-0.358
ACACCCG,-0.0899
CCCCAUU,-0.432
UUUUACA,-0.0645

# Block 2
# Target: Hepatocyte nuclear factor 3-alpha (Foxa1, Mus musculus, UniProt P35582, residues 1-468, full length assumed)
# Technique: EMSA with sequencing
# Form: double-stranded DNA, one strand shown
# Sample: in vitro
# Tested at: 10 and 20 nM
# Notes: whole designed probe, mean of two concentrations, ends assumed
# Reference: negative control set to 0
# Reading: higher = stronger binding
# All sequences stand within: GTGAGCGGTGCCCATTGATGGGGAAC … TTTCACTGGGATCGTGGGGAC
# Construct (chain): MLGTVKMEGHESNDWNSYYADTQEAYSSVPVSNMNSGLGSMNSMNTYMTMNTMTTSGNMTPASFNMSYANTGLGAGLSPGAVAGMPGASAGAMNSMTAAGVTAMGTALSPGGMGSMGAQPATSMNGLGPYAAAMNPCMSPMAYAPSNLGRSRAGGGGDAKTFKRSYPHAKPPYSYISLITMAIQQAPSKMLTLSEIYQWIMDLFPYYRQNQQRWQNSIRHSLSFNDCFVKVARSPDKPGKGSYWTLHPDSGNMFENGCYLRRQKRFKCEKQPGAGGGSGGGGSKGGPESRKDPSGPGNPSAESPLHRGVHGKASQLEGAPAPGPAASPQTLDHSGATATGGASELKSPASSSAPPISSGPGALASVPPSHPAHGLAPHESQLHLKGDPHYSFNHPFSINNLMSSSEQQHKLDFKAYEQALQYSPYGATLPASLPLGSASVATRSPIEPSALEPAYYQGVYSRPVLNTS
Sequence,normalised bound fraction [ratio]
AATCTAAGCACAGGATGACAATAAAATGTTATGAAACCTGTACAATTTCTTAAAAATTTTATTAAAGAAAATATAAATAGTTAAATAAAAGCCATGTTTACACTGAAATAAAATAAAGGATGGGAAAAGGTAGTATCTAAGTTTTCTACTTATTGGCAATCCTATAAGTTATAGTTTTTGAAATATTTAAAAG,0.168
AACAAACAAATAAAACAACTAGTATGGAAGCTAGAATAATGTGATGCACCATTACACCAAATATTCAGTCTTAACATGGTTTTTAATATTATGTAATCTTGGAAGGTATTGCCATTGTTCATATGATACAGAATCAATGGCACTCACAATCATCTGAATATATTGAAAAATGGCACCTTCAAATAAAAATTGT,0.264
TGTCCCCAAACTAAATTAACAACTTTTTCCAAGACAAGTTCCAACACCAATTCATCCCCCAACTCCCCCGCCTCTTTTTTTTTTTTTTTTTAAAGTAAACAAGGATACCTTCATTCTCTCAGGAAAAAGGTGACATCAAATTACCTTCTCTTTTTTCTTCTCAATCTTCCAAAACCTTTTCCCAAAGTCATTT,0.306
AAAAAGTGAAAGAAAAAGAAAAAAAGGAAGAACCCTGTTATAGATTAGAAAGAGCACTGGACTTGGGGTCAGGATGTTTGTGTAAATGTCTCTGTTGACCTTTGGTGAGTCAGCCTTTCGTAAACTCCAGCCACAGCATGACTGCATCACCGGTTCCTTTGAAGCCCCTATGCTCCATCAACCTGCTGGAACA,0.0881
ACTGGGTGGACTCCGAGTGCCGCTGCCCAGTGTCTGCCTCCCTTCCTTTCGCTGGGGATGGAGAGCAGTGCGATGCTGGCCCCCGGGATCCCTGTTTACACAGCGTGATGGCCAACGCCACCCTTCCCAGAGAGACTTACATCATGGGGCCTGAGCTGTGACCCTTTTAGAATTATCCACACTTTTTTTTTTT,0.367
ATCTTCCCCCTCTTCCTTGCCCCACCAGCTCACCTTCCCGGGTTATTTGCAGATAGGAAAATAAATAAAGCCGGCATTCGTTAACCCTCTTCTGGCGCAAACTGCTGTTTGCTCTGCATGAATCATGGTCCTTACGCGAGGCGTGGCTCCGGGAGAGCAAAGCACCGTGTCAGGCGCATGATCCGGGCTCGCC,0.348
TTTTTTCTTTTAGTTTTCATTTTTTTTCTGAAAACAGAAACACACAGTAACATGTAATATAAAATTGCTTTTATTATAAATAACCCCTTACAATGTAATCTAATATATTGATATTATAAAACCACTGGTCCTCATTTGTTTTAATATGGCAAAATTAAATAACCTTTCACATTAAAAATATACTCTTTAGTTT,0.314
CAAACTTTGCTGTAGTTTAACCCTGTAAATCATTGGAAAGTTTATCAAATACCTTAAATGCTTTTGCAACTTATTCATTCCCTGGTTATTTGGGTAAACAAGTACAGCGCACTGTTGGATGAACTTTATCTGAACTATTATCACTGAGCTGTTGGGGGAAATTCCGTCTTTTCCAAATCTGTACTGCGATATA,0.188

# Block 3
# Target: Casein kinase II subunit alpha' (CSNK2A2, Homo sapiens, UniProt P19784)
# Sequence of UniProt P19784 (whole entry, looked up): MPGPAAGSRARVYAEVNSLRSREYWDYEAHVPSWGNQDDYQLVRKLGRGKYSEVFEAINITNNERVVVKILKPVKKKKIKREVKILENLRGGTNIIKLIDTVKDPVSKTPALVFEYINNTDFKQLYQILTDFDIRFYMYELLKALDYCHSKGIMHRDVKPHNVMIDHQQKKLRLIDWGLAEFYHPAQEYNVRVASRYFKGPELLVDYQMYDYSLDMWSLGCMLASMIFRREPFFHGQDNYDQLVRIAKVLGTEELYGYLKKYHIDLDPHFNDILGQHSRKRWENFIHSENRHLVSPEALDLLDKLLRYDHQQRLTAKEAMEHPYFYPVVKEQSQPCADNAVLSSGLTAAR
# Effect on: enzyme activity
# Mode: inhibitor
# Tested at: 0.5 µM
# Reference: control
SMILES,remaining activity [%]
CN(C)S(=O)(=O)c1ccc2c(c1)/C(=C/c1cc3c([nH]1)CCCC3)C(=O)N2,92.1
COc1cc2c(N3CCN(C(=O)Nc4ccc(OC(C)C)cc4)CC3)ncnc2cc1OCCCN1CCCCC1,92.9
CCCCc1c(-c2ccc(O)cc2)[nH]c2nccnc12,94.7
NC(=O)c1cccc(-c2cc(Nc3ccc(OC(F)(F)F)cc3)ncn2)c1,92.7
c1ccc(-c2n[nH]c3c2oc2ccccc23)cc1,85.6
COc1cccc(-c2cc(=O)c3ccccc3o2)c1N,97.7
C[C@@H](N)[C@H]1CC[C@H](C(=O)Nc2ccncc2)CC1,88
Cc1ccc(S(=O)(=O)/C=C/C#N)cc1,97.9
c1cc(-c2cnn3cc(-c4ccc(OCCN5CCCCC5)cc4)cnc23)ccn1,34.6
Nc1nc(Nc2ccc(S(N)(=O)=O)cc2)nn1C(=S)Nc1c(F)cccc1F,81.9
c1ccc2c(-c3ccncc3)c[nH]c2c1,94.9
O=C(c1ccccc1)c1ccc(N2CCOCC2)cc1O,96.8
COc1ccc(COc2ccc(Cc3cnc(N)nc3N)cc2OC)cc1,97.4

# Block 4
# SMILES: Cc1cc(NC(=O)c2cccc(S(F)(F)(F)(F)F)c2)cc(-n2ccn3nc(-c4cccnc4)cc23)c1
# Effect on: cell-free assay
# Technique: competition with immobilised ligand
# Tested at: 1 µM
target,remaining binding [%]
"Hepatocyte growth factor receptor (MET, Homo sapiens, UniProt P08581)",77.3
"Casein kinase I isoform alpha (CSNK1A1, Homo sapiens, UniProt P48729)",50.7
"Tyrosine-protein kinase ABL1, phosphorylated (ABL1, Homo sapiens, UniProt P00519, M351T)",70.3
"Non-receptor tyrosine-protein kinase TNK1 (TNK1, Homo sapiens, UniProt Q13470)",95
"Serine/threonine-protein kinase TAO1 (TAOK1, Homo sapiens, UniProt Q7L7X3)",100
"1-phosphatidylinositol 3-phosphate 5-kinase (PIKFYVE, Homo sapiens, UniProt Q9Y2I7)",100
"Serine/threonine-protein kinase LATS2 (LATS2, Homo sapiens, UniProt Q9NRM7)",100
"Serine/threonine-protein kinase Nek11 (NEK11, Homo sapiens, UniProt Q8NG66)",57.5
"Serine/threonine-protein kinase PLK2 (PLK2, Homo sapiens, UniProt Q9NYY3)",100
"Cyclin-dependent kinase-like 5 (CDKL5, Homo sapiens, UniProt O76039)",100
"Tyrosine-protein kinase ABL1, non-phosphorylated (ABL1, Homo sapiens, UniProt P00519, H396P)",66.9
"SNF-related serine/threonine-protein kinase (SNRK, Homo sapiens, UniProt Q9NRH2)",100
"Receptor-interacting serine/threonine-protein kinase 1 (RIPK1, Homo sapiens, UniProt Q13546)",80.7
"Epidermal growth factor receptor (EGFR, Homo sapiens, UniProt P00533, del752-759)",100
"Cytoplasmic tyrosine-protein kinase BMX (BMX, Homo sapiens, UniProt P51813)",100
"Calcium/calmodulin-dependent protein kinase type II subunit alpha (CAMK2A, Homo sapiens, UniProt Q9UQM7)",100

# Excerpt of the above (block 4):
target,remaining binding [%]
"Serine/threonine-protein kinase LATS2 (LATS2, Homo sapiens, UniProt Q9NRM7)",100
"Tyrosine-protein kinase ABL1, phosphorylated (ABL1, Homo sapiens, UniProt P00519, M351T)",70.3
"Cyclin-dependent kinase-like 5 (CDKL5, Homo sapiens, UniProt O76039)",100
"Serine/threonine-protein kinase PLK2 (PLK2, Homo sapiens, UniProt Q9NYY3)",100
"SNF-related serine/threonine-protein kinase (SNRK, Homo sapiens, UniProt Q9NRH2)",100
"Serine/threonine-protein kinase Nek11 (NEK11, Homo sapiens, UniProt Q8NG66)",57.5
"1-phosphatidylinositol 3-phosphate 5-kinase (PIKFYVE, Homo sapiens, UniProt Q9Y2I7)",100
